Experimental data from different studies.
Lines come from different studies, so protocols differ. “And” joins repeats or separate records; there may be more than shown. Numbers after ± are the reported error.
gag-pol integrase: Gag-Pol polyprotein, integrase (gag-pol, Human immunodeficiency virus 1, UniProt P12497)
EPHX2: Bifunctional epoxide hydrolase 2 (EPHX2, Homo sapiens, UniProt P34913)
RELA: Transcription factor p65 (RELA, Homo sapiens, UniProt Q04206)

Compound	target	test	system	conditions	IC50
Cc1nc2ccccc2n1Cc1ccc(C(=O)NO)cc1	Polyamine deacetylase HDAC10 (HDAC10, Homo sapiens, UniProt Q969S8)			concentration not given	12 µM
CCOC(=O)/C(O)=C/C(=O)c1cn(Cc2ccc(F)cc2)c2c(Cl)cccc2c1=O	gag-pol integrase	3'-processing, inhibitor, gel-based		together with: Mg2+	> 333 µM
COc1ccccc1-c1cn(CC2CCN(C(C)=O)CC2)c2ncnc(N)c12	Calcium-dependent protein kinase 1 (CDPK1, Plasmodium falciparum, UniProt P62344)	enzyme activity, inhibitor			> 2 µM
Cc1ccc(NC(=O)Nc2cccc(-c3nnc(C4CCCCC4)o3)c2)cc1	α-amylase	enzyme activity, inhibitor			5.29 µM
CCn1[c](=[Au-2][Cl])n(CC)c2ccccc21	Thioredoxin reductase (trxB, Escherichia coli, UniProt P0A9P4)	enzyme activity, inhibitor, absorbance		with preincubation	0.183 µM
CCOC(=O)/C(O)=C/C(=O)c1cn(Cc2ccc(F)cc2)c2ccccc2c1=O	gag-pol integrase	strand transfer, inhibitor, gel-based		together with: Mg2+	0.79 µM
OC[C@H]1O[C@@H](n2cnc3c(O)ncnc32)[C@H](O)[C@@H]1O	Nucleoside transporter 1 (Plasmodium vivax, UniProt A5K8B0)	adenosine uptake, inhibitor	yeast expressing Nucleoside transporter 1	15 min, together with: [3H]adenosine 50 nM	2.7 µM
C[C@]12CC3CC(Nc4c(Nc5ccc(CN6CCC[C@H](C(=O)NCCCC(=O)NO)C6)cc5)c(=O)c4=O)(C1)C[C@@](C)(C3)C2	EPHX2	enzyme activity, inhibitor, fluorescence			0.0377 µM
COc1cc(CCC(O)CC(O)CCc2ccc(O)c(OC)c2)ccc1O (stereo not shown)	3 beta-hydroxysteroid dehydrogenase/Delta 5-->4-isomerase type 2 (HSD3B2, Homo sapiens, UniProt P26439)	enzyme activity, inhibitor	KGN cell homogenate	lower bound from 100 µM screen, together with: pregnenolone	≥ 100 µM
CC(C)NCc1ccc(C[C@@H]2NC(=O)[C@H](N(C)C(=O)c3ccc4ccccc4c3)NC(=O)[C@H](Cc3ccccc3)NC(=O)[C@@H](N)CSSC[C@@H](C(=O)N[C@H](C(N)=O)[C@@H](C)O)NC(=O)[C@H](Cc3ccccc3)NC2=O)cc1	Somatostatin receptor type 1 (SSTR1, Homo sapiens, UniProt P30872)	ligand displacement, radioligand		cell membranes	0.042 µM
CN1C[C@H](CNC(=O)OCc2ccccc2)C[C@@H]2c3cccc4c3c(cn4C)C[C@H]21	human MBNL1	CUG repeat RNA binding, inhibitor, HTRF		together with: biotin-(CUG)12 RNA	25.1 µM
COC(=O)C1=C(C)NC(C)=C([N+](=O)[O-])[C@@H]1c1ccccc1C(F)(F)F	Voltage-dependent T-type calcium channel subunit alpha-1I (CACNA1I, Homo sapiens, UniProt Q9P0X4)	inhibitor, FLIPR calcium	HEK293 with GCaMP6s-CAAX, Kir2.3	together with: KCl at EC90	16 µM
O=C(O)c1nn(Cc2ccc(Cl)cc2Cl)c2ccccc12	Monocarboxylate transporter 4 (SLC16A3, Homo sapiens, UniProt O15427)	L-lactate transport, inhibitor	Xenopus laevis oocytes	pH 6.0, 22 °C, together with: L-lactate 0.5 mM	40.4 ± 2.2 µM
O=C(Nc1cc(Cl)c(F)c(Cl)c1)c1cc(S(=O)(=O)N2CCOCC2)c(Cl)cc1Cl	Lysophosphatidic acid receptor 2 (LPAR2, Homo sapiens, UniProt Q9HBW0)	Ca2+ mobilization, antagonist	MEF	together with: LPA at EC50	> 100 µM
C=CCc1ccc(O)c(-c2cc(CC=C)ccc2O)c1	mitochondrial complex I	complex I-dependent oxygen consumption rate, inhibitor	G-361	24 h	31 µM
CCc1c(Cl)c(O)c(Cl)c(O)c1C(=O)O[C@H]1[C@H](O)[C@H](OC)[C@H](OC/C2=C\C=C\C[C@H](O)/C(C)=C/[C@H](CC)[C@@H](O[C@@H]3OC(C)(C)[C@@H](OC(=O)C(C)C)[C@H](O)[C@@H]3O)/C(C)=C/C(C)=C/C[C@@H]([C@@H](C)O)OC2=O)O[C@@H]1C	Organic solute transporter subunit alpha, with OSTβ (SLC51A, Homo sapiens, UniProt Q86UW1)	DHEAS uptake, inhibitor	Flp-In 293 overexpressing OSTα/β	30 s, together with: DHEAS 4 µM	169 µM and < 200 µM
CC(C)C[C@H](NC(=O)[C@H](Cc1ccc2ccccc2c1)NC(=O)[C@H](CCC(=O)O)NC(=O)c1cnccn1)C(=O)NC1CC1c1ccccc1 (stereo partly shown)	Adenomatous polyposis coli protein (APC, Homo sapiens, UniProt P25054)	ligand displacement, FP			44.6 µM
CC(C)C[C@H](NC(=O)[C@@H](NC(=O)N[C@H](C(=O)NCc1ccccc1)C(C)C)C(C)C)C(=O)[C@@]1(C)CO1	rabbit 26S proteasome β1	caspase-like activity, inhibitor, fluorogenic substrate	purified proteasome	30 min, 37 °C, together with: fluorogenic caspase-like substrate	1.2 µM
O=C1C=C2CC3(O)COc4c(ccc(O)c4O)C3=C2C=C1O (stereo not shown)	firefly luciferase	ADP-Glo ADP processing, luminescence counter-screen	cell-free, no kinase	up to 77 µM, together with: ADP 1.25 µM, ATP 11.25 µM	no inhibition
C[C@]12C[C@@H]3C[C@](C)(C1)C[C@@](NC(=O)Nc1ccc(C(=O)N4CCC[C@H](C(=O)NCCCCCCC(=O)NO)C4)cc1)(C3)C2	EPHX2	enzyme activity, inhibitor, fluorescence			0.0003 µM

Compound	target	test	system	conditions	IC50
CC(C)[C@H](CO)Nc1nc(Nc2cc(N)cc(Cl)c2)c2ncn(C(C)C)c2n1	Proto-oncogene tyrosine-protein kinase Src (SRC, Homo sapiens, UniProt P12931)	enzyme activity, inhibitor, ADP detection			0.12 µM
Nc1ccn([C@@H]2O[C@H](COP(=O)(O)OP(=O)(O)OP(=O)(O)O)[C@@H](O)[C@H]2O)c(=O)n1	inositol pyrophosphate kinase Vip1, CTP-swap V2 (Trichoderma virens, UniProt Z9USF9BXN2)	5'-deoxyadenosine formation, inhibitor, LC-MS		pH 7.5, together with: 1 mM deuterated UTP, 1 mM SAM	16 ± 6.5 µM
Cc1ccc(C(=O)Nc2cccc(-c3nnc(C4CCCCC4)o3)c2)cc1	α-amylase	enzyme activity, inhibitor			5.93 µM
COc1ccc2nc(/C=C/c3cccc([N+](=O)[O-])c3)n(-c3ccc(C(=O)O)cc3)c(=O)c2c1	Glutamate NMDA receptor; Grin1/Grin2c (Rattus norvegicus, UniProt P35439+Q00961)	ion current, two-electrode voltage clamp		oocytes	7.1 µM
O=c1c(O)c(-c2cc(O)c(O)c(O)c2)oc2cc(O)cc(O)c12	firefly luciferase	ADP-Glo ADP processing, luminescence counter-screen	cell-free, no kinase	up to 77 µM, together with: ADP 1.25 µM, ATP 11.25 µM	no inhibition
COC(=O)C1=C(C)NC(C)=C([N+](=O)[O-])[C@H]1c1ccccc1C(F)(F)F	Voltage-dependent P/Q-type calcium channel subunit alpha-1A, with β4/α2δ1 (Homo sapiens, UniProt O00555)	calcium current, blocker, automated patch clamp	holding potential -90 mV	last pulse of train, together with: 0.1 Hz pulse train	10 ± 2.6 µM
C=CC(C)(C)c1cc2cc(-c3ccc(O)cc3O)c(=O)oc2cc1O	RELA	NF-κB activity, inhibitor			0.06 µM
O=C(COc1ccc(Cl)c2ccccc12)Nc1cc(Cl)ccc1C(=O)O	Transient receptor potential cation channel subfamily M member 4 (TRPM4, Homo sapiens, UniProt Q8TD43)	ion flux, inhibitor, fluorescence			2.2 µM
C=CC(C)(C)c1cc(-c2oc3cc(O)ccc3c2Cc2cc(-c3cc4cc(C(C)(C)C=C)c(O)cc4oc3=O)c(O)cc2O)c(O)cc1O	RELA	NF-κB activity, inhibitor			1.5 µM
CC[C@H](c1ccc(O)cc1)[C@@H](CC)c1ccc(O)cc1	Thyroid peroxidase (Tpo, Rattus norvegicus, UniProt P14650)	enzyme activity, inhibitor, LC-MS/MS, measured: monoiodotyrosine	rat thyroid microsomes	together with: L-tyrosine substrate	7.19 µM and 10.7 µM
CCOC(=O)[C@@H]1[C@H]2[C@H](O)[C@@H](O)[C@H](O)[C@@H](CO)[C@@H]12	Lysosomal acid glucosylceramidase (GBA1, Homo sapiens, UniProt P04062, R534H)	enzyme activity, inhibitor		pH 5.2	> 150 µM
Cc1ccc(S(=O)(=O)N[C@@H](CC(=O)NC(C)(C)C)C(=O)N[C@@H](C)CC(=O)NCc2cccc3ccccc23)cc1	Proteasome component C5/PSMB5 (Homo sapiens, UniProt P20618+P28074)	chymotrypsin-like activity, inhibitor		together with: suc-LLVY-AMC	74.9 ± 10.5 µM
Cc1ccc(NC(=O)NC2(C(=O)N3CCN(c4ccccc4)CC3)CCCCC2)cc1	Endoplasmic reticulum aminopeptidase 1, open conformation (ERAP1, Homo sapiens, UniProt Q9NZ08)	enzyme activity, inhibitor, fluorogenic		partial inhibition, together with: L-AMC substrate	> 200 µM
CSc1ccc(/C=C2/C(C)=C(CC(=O)O)c3cc(F)ccc32)cc1	cGMP-inhibited 3',5'-cyclic phosphodiesterase 3A (PDE3A, Homo sapiens, UniProt Q14432)	enzyme activity, inhibitor, FP			84 µM
COc1ccc2c(ccn2CCC2CCN(C(=O)OC(C(F)(F)F)C(F)(F)F)CC2)c1	Monoglyceride lipase (MGLL, Homo sapiens, UniProt Q99685)	enzyme activity, inhibitor			0.51 µM
CC(C)C[C@@H]1NC(=O)[C@H]([C@@H](C)O)NC(=O)[C@H](Cc2ccccc2)NC(=O)CNC(=O)[C@H](Cc2c[nH]c3ccccc23)NC(=O)[C@H](Cc2c[nH]cn2)NC(=O)[C@H]([C@@H](C)O)NC(=O)[C@H]([C@@H](C)O)NC(=O)[C@H](C)NC(=O)CCNC1=O	72 kDa type IV collagenase (MMP2, Homo sapiens, UniProt P08253)	enzyme activity, inhibitor			84 µM
Nc1ncnc2c1ncn2[C@@H]1O[C@H](COP(=O)(O)OP(=O)(O)C(Cl)(Cl)P(=O)(O)O)[C@@H](O)[C@H]1O	Protein kinase C epsilon type (PRKCE, Homo sapiens, UniProt Q02156)	enzyme activity, inhibitor, HotSpot kinase		together with: ATP 1 µM	0.09 µM
CC[C@H](C)[C@H](NC(=O)[C@H](Cc1ccc(O)cc1)NC(=O)[C@@H](NC(=O)[C@H](CCCNC(=N)N)NC(=O)[C@@H](N)CC(=O)O)C(C)C)C(=O)N[C@@H](Cc1c[nH]cn1)C(=O)N1CCC[C@H]1C(=O)N[C@@H](Cc1ccccc1)C(=O)N[C@@H](Cc1c[nH]cn1)C(=O)O	Neurolysin, mitochondrial (Rattus norvegicus, UniProt P42676)	radioligand binding	rat, testis membranes		3.3 µM
COC(=O)C1=C(C)NC(C)=C(C(=O)OCCN(C)Cc2ccccc2)C1c1cccc([N+](=O)[O-])c1 (stereo not shown)	Multidrug resistance-associated protein 1 (ABCC1, Homo sapiens, UniProt P33527)	substrate efflux, inhibitor, flow cytometry	ABCC1-overexpressing SupT1-Vin cells	together with: BODIPY-FL-prazosin 100 nM	2.6 ± 2.2 µM
OC1CCCc2ccc(OCc3ccc(Cl)cc3)cc21 (stereo not shown)	Amine oxidase [flavin-containing] B (MAOB, Homo sapiens, UniProt P27338)	enzyme activity, inhibitor, fluorescence			0.039 µM

A few entries again:
Compound	target	test	system	conditions	IC50
Nc1ccn([C@@H]2O[C@H](COP(=O)(O)OP(=O)(O)OP(=O)(O)O)[C@@H](O)[C@H]2O)c(=O)n1	inositol pyrophosphate kinase Vip1, CTP-swap V2 (Trichoderma virens, UniProt Z9USF9BXN2)	5'-deoxyadenosine formation, inhibitor, LC-MS		pH 7.5, together with: 1 mM deuterated UTP, 1 mM SAM	16 ± 6.5 µM
O=C(COc1ccc(Cl)c2ccccc12)Nc1cc(Cl)ccc1C(=O)O	Transient receptor potential cation channel subfamily M member 4 (TRPM4, Homo sapiens, UniProt Q8TD43)	ion flux, inhibitor, fluorescence			2.2 µM
C=CC(C)(C)c1cc(-c2oc3cc(O)ccc3c2Cc2cc(-c3cc4cc(C(C)(C)C=C)c(O)cc4oc3=O)c(O)cc2O)c(O)cc1O	RELA	NF-κB activity, inhibitor			1.5 µM
O=C1C=C2CC3(O)COc4c(ccc(O)c4O)C3=C2C=C1O (stereo not shown)	firefly luciferase	ADP-Glo ADP processing, luminescence counter-screen	cell-free, no kinase	up to 77 µM, together with: ADP 1.25 µM, ATP 11.25 µM	no inhibition
